Measured values of several laboratories.
Several values in a cell are separate wells, animals, samples, runs or records.

O=S(=O)(O)SSS(=O)(=O)O
ΔTm (uncharacterized protein (Pelagibacter ubique, UniProt Q4FMK2); differential scanning fluorimetry; Candidatus Pelagibacter ubique; concentration not given; higher = stronger binding): 5.69 °C

O=C(CO)NC1C(O)CC(OC2C(O)C(CO)OC(Oc3ccc([N+](=O)[O-])cc3)C2O)(C(=O)O)OC1C(O)C(O)CO (stereo not shown)
sialic acid release (Sialidase-2 (Homo sapiens, UniProt Q9Y3R4); substrate; 0.3 mM, 30 min, pH 5.0, 37 °C): 83%

CC(=C/C(=O)O)/C=C/C=C(\C)C1C=C2C(C)(C)CCCC2(C)O1 (stereo not shown)
plasma membrane localization (Rhodopsin (RHO, Homo sapiens, UniProt P08100, E181K); immunostaining, item: opsin; COS-7 transfected; 0.05 µM, unit not given; reference: surface over total stained cells): 0

CC[C@H](C)[C@H](NC(=O)[C@H](Cc1ccccc1)NC(=O)[C@H](CCC(=O)O)NC(=O)[C@H](CCCNC(=N)N)NC(=O)[C@H](C)NC(=O)[C@H](C)NC(=O)[C@H](CCC(N)=O)NC(=O)[C@H](CCCCNc1c(NCCCCCN(O)C(=O)CCC(=O)NCCCCCN(O)C(=O)CCC(=O)NCCCCCN(O)C(C)=O)c(=O)c1=O)NC(=O)[C@H](CCC(=O)O)NC(=O)[C@H](CC(C)C)NC(=O)[C@H](Cc1ccc(O)cc1)NC(=O)[C@H](CO)NC(=O)[C@H](CO)NC(=O)[C@@H](NC(=O)[C@H](CC(=O)O)NC(=O)[C@H](CO)NC(=O)[C@@H](NC(=O)[C@H](Cc1ccccc1)NC(=O)[C@@H](NC(=O)CNC(=O)[C@H](CCC(=O)O)NC(=O)[C@H](C)NC(=O)CCc1cnc[nH]1)[C@@H](C)O)[C@@H](C)O)C(C)C)C(=O)N[C@@H](C)C(=O)N[C@@H](Cc1c[nH]c2ccccc12)C(=O)N[C@@H](CC(C)C)C(=O)N[C@H](C(=O)N[C@@H](CCCCNc1c(NCCCCCN(O)C(=O)CCC(=O)NCCCCCN(O)C(=O)CCC(=O)NCCCCCN(O)C(C)=O)c(=O)c1=O)C(=O)NCC(=O)N[C@@H](CCCNC(=N)N)C(=O)N[C@@H](CCCCNC(=O)COCCOCCNC(=O)COCCOCCNC(=O)CC[C@H](NC(=O)CCCCCCCCCCCCCCCCC(=O)O)C(=O)O)C(=O)O)C(C)C
fold potency loss (GLP1R (Homo sapiens, UniProt P43220); agonist, CRE luciferase reporter; BHK cells; metal-free DFO conjugate, together with: 1% HSA; reference: parent peptide): 20.2

Nc1nc2c(ncn2[C@@H]2O[C@H](COP(=O)(O)O)[C@@H](O)[C@H]2O)c(=O)[nH]1
kcat (GUK1 (Homo sapiens, UniProt Q16774, Y53A); enzyme activity, NADH-coupled): 12.7 s⁻¹

O=c1nc(SCc2cc(F)cc(C(F)(F)F)c2)nc(SCc2ccc3nc(OCCN4CCOCC4)ccc3c2)[nH]1
decatenated DNA (TOP2A (Homo sapiens, UniProt P11388); decatenation; 7.8 µM, replicate 2): 94.3%

Cc1ccc(-n2nc(C)c3c(N)nc(N)nc32)c(Cl)c1
remaining binding (PIK3CG (Homo sapiens, UniProt P48736); KinomeScan competition; 7.5 µM): 32%

NCCS(=O)(=O)O
normalised MST signal (SLC6A6 (Homo sapiens, UniProt P31641, Y138A); binding, microscale thermophoresis; 244 nM, room temperature, together with: 50 nM labelled protein; higher = more binding): 0.0317

CCCCC[S+]([O-])c1n[nH]c(N)n1 (stereo not shown)
fold enrichment (Transcription intermediary factor 1-beta, PHD-bromodomain (TRIM28, Homo sapiens, UniProt Q13263); binding, affinity selection mass spectrometry; reference: other proteins in batch): 0.874

CCN(CCO)CCCC(C)Nc1ccnc2cc(Cl)ccc12 (stereo not shown)
activation slope factor (SCN5A (Homo sapiens, UniProt Q14524); sodium current, whole-cell patch clamp; 300 µM, without ATX-II): 5.06 mV/e-fold and 2.43 mV/e-fold and 4.17 mV/e-fold

Some of these lines once more:
O=c1nc(SCc2cc(F)cc(C(F)(F)F)c2)nc(SCc2ccc3nc(OCCN4CCOCC4)ccc3c2)[nH]1
decatenated DNA (TOP2A (Homo sapiens, UniProt P11388); decatenation; 7.8 µM, replicate 2): 94.3%
